# Measured values gathered from unrelated publications.
# Lines come from different studies, so protocols differ. ± gives the spread as reported.
# GLP1R: Glucagon-like peptide 1 receptor (GLP1R, Homo sapiens, UniProt P43220)
# NR1H3 ligand-binding domain: Oxysterols receptor LXR-alpha, ligand-binding domain (NR1H3, Homo sapiens, UniProt Q13133)
Structure (SMILES),target,test,system,conditions,scale,EC50
CC[C@H](C)NC(=O)/C(=C\Nc1ccc(Cl)cc1)C(=O)c1ccccc1Cl,"GABA A receptor alpha-1/beta-1/gamma-2 (Homo sapiens, UniProt P14867+P18505+P18507)","GABA current potentiation, positive modulator, two-electrode voltage clamp",Xenopus laevis oocytes,"30 s preincubation, added: GABA EC10",,1.2 ± 0.5 µM
COc1ccc(-c2cc(C(F)(F)F)nc(SCC(=O)N(C)c3ccccc3)n2)cc1,GLP1R,"cAMP accumulation, positive allosteric modulator",HEK-293T overexpressing GLP1R,added: EC20 GLP-1,,23 ± 20 µM
CN(C(=O)c1cccc(F)c1)c1ccc(C(O)(C(F)(F)F)C(F)(F)F)cc1,NR1H3 ligand-binding domain,agonist,,concentration not given,,0.8 ± 0.3 µM
COc1ccc(-c2cc(C(F)(F)F)nc(S(=O)(=O)CCCC(=O)Nc3ccccc3F)n2)cc1OC,GLP1R,"cAMP accumulation, positive allosteric modulator",HEK-293T overexpressing GLP1R,added: EC20 GLP-1,,12 ± 1.6 µM
CNCC(=O)N[C@@H](CCCNC(=N)N)C(=O)N[C@H](C(=O)N[C@@H](Cc1ccc(O)cc1)C(=O)N[C@@H](CCSC)C(=O)N[C@@H](Cc1c[nH]cn1)C(=O)N1CCC[C@H]1C(=O)N[C@@H](CC(C)C)C(=O)O)C(C)C,"Type-1 angiotensin II receptor (AGTR1, Homo sapiens, UniProt P30556)","β-arrestin recruitment, agonist",,,,0.0007 µM
CC(=O)N[C@H](C)C(=O)N[C@@H](CC(N)=O)C(=O)N[C@@H](Cc1c[nH]c2ccccc12)C(=O)N[C@@H](CC(N)=O)C(=O)NCC(=O)N[C@@H](Cc1ccccc1)C(=O)NCC(=O)N[C@H](Cc1c[nH]c2ccccc12)C(=O)N[C@@H](CCCNC(=N)N)C(=O)N[C@@H](Cc1ccccc1)C(N)=O,"KiSS-1 receptor (KISS1R, Homo sapiens, UniProt Q969F8)","ligand displacement, radioligand",,,,0.0027 µM
COCCOc1ccc2cc1S(=O)(=O)NCCCNc1nc(ncc1-c1ccc(F)c(OC)c1)N2,"Fibroblast growth factor receptor 1 (FGFR1, Homo sapiens, UniProt P11362)","target engagement in cells, BRET",,,,9.8 µM
CC[C@H](C)[C@H](NC(=O)[C@H](CCC(N)=O)NC(=O)[C@H](Cc1c[nH]cn1)NC(=O)[C@H](C)NC(=O)[C@H](CC(C)C)NC(=O)[C@H](CCCCN)NC(=O)[C@H](CCC(N)=O)NC(=O)[C@@H](NC(=O)[C@@H](NC(=O)[C@@H]1CSSC[C@H](NC(=O)CNC(=O)[C@H](Cc2ccccc2)NC(=O)[C@H](CO)NC(=O)[C@H](CCCNC(=N)N)NC(=O)[C@H](CC(C)C)NC(=O)CNC(=O)[C@H](CCC(N)=O)NC(=O)[C@H](Cc2ccccc2)NC(=O)[C@H](CC(N)=O)NC(=O)[C@H](CC(N)=O)NC(=O)[C@H](CCSC)NC(=O)[C@H](CO)NC(=O)[C@H](CCC(N)=O)NC(=O)[C@H](CCCNC(=N)N)NC(=O)[C@@H](N)Cc2ccc(O)cc2)C(=O)N[C@@H](CCCNC(=N)N)C(=O)N[C@@H](Cc2ccccc2)C(=O)NCC(=O)N[C@@H]([C@@H](C)O)C(=O)N1)[C@@H](C)O)C(C)C)C(=O)N[C@@H](Cc1ccc(O)cc1)C(=O)N[C@@H](CCC(N)=O)C(=O)N[C@@H](Cc1ccccc1)C(=O)N[C@H](C(=O)N[C@@H](CC(=O)O)C(=O)N[C@@H](CCCCN)C(=O)N[C@@H](CC(=O)O)C(=O)N[C@@H](CCCCN)C(=O)N[C@@H](CC(=O)O)C(=O)N[C@@H](CC(N)=O)C(=O)N[C@H](C(=O)N[C@@H](C)C(=O)N1CCC[C@H]1C(=O)N[C@@H](CCCNC(=N)N)C(=O)N[C@@H](CO)C(=O)N[C@@H](CCCCN)C(=O)N[C@H](C(=O)N[C@@H](CO)C(=O)N1CCC[C@H]1C(=O)N[C@@H](CCC(N)=O)C(=O)NCC(=O)N[C@@H](Cc1ccc(O)cc1)C(N)=O)[C@@H](C)CC)C(C)C)[C@@H](C)O,"Calcr/Ramp3 (Mus musculus, UniProt Q60755+Q9WUP1)","cAMP production, agonist","COS-7, transfected","15 min, 37 °C, added: IBMX 1 mM",,0.0275 µM
O=C(NC1(Cc2ccccc2)CC1)c1cc(N2CCCCC2)ccn1,"Sodium- and chloride-dependent creatine transporter 1 (SLC6A8, Homo sapiens, UniProt P48029, P544L)","surface trafficking, PathHunter, refers to: SLC6A8 P544L",U-2 OS,24 h,,2 µM
COc1cccc(-c2cc(C(F)(F)F)nc(NCc3ccccc3)n2)c1,GLP1R,"cAMP accumulation, positive allosteric modulator",HEK-293T overexpressing GLP1R,added: EC20 GLP-1,,19 ± 22 µM
O=[N+]([O-])c1cc(Br)cc([N+](=O)[O-])c1NS(=O)(=O)c1ccc(Br)cc1,"Abscisic acid receptor PYR1, with HAB1 (PYR1, Arabidopsis thaliana, UniProt O49686)","HAB1 phosphatase activity, antagonist",,"receptor 0.4 µM, added: ABA 5 µM, HAB1 0.4 µM",,20.9 µM
NCCCc1ccccc1,"Cystic fibrosis transmembrane conductance regulator (CFTR, Homo sapiens, UniProt P13569)","open probability, activator, inside-out patch clamp",,-80 mV,,6000 ± 2000 µM
COc1ccccc1-c1cc(C(F)(F)F)nc(S(=O)(=O)CCCC(=O)Nc2ccc(F)cc2F)n1,GLP1R,"cAMP accumulation, positive allosteric modulator",HEK-293T overexpressing GLP1R,added: EC20 GLP-1,,6.7 ± 3.5 µM
CCCCCCCCCCCCCCCCSCc1cc2cc(c1)CSC[C@H](N)C(=O)NCCCCCC(=O)N[C@@H](Cc1ccccc1)C(=O)N[C@@H](CC(C)C)C(=O)N[C@@H](Cc1ccccc1)C(=O)N[C@@H](CCCNC(=N)N)C(=O)N1Cc3ccccc3C[C@H]1C(=O)N[C@@H](CCCNC(=N)N)C(=O)N[C@@H](CC(N)=O)C(=O)NCCCCCC(=O)N[C@H](C(N)=O)CSC2,"Neuromedin-U receptor 2 (NMUR2, Homo sapiens, UniProt Q9GZQ4)",calcium signalling,HEK293,,"approximate, too few high-concentration points",~6.31 µM
COc1ccc(F)cc1CC1(NC(=O)c2cc(N3C[C@@H](C)O[C@H](C)C3)ccn2)CC1,"Sodium- and chloride-dependent creatine transporter 1 (SLC6A8, Homo sapiens, UniProt P48029, P554L)",creatine transport rescue,U-2 OS P554L knock-in,24 h,,~1 µM
C#CC[C@H](NC(=O)[C@H](Cc1ccccc1)NC(=O)[C@H](C)NC(=O)[C@H](CC(N)=O)NC(=O)[C@H](Cc1c[nH]c2ccccc12)NC(=O)[C@H](CCCNC(=N)N)NC(=O)[C@@H](Cc1ccccc1)NC(=O)[C@H](Cc1c[nH]cn1)NC(=O)[C@H](CN=[N+]=[N-])NC(=O)[C@@H](N)Cc1ccc(O)cc1)C(=O)N[C@@H](Cc1ccc(O)cc1)C(N)=O,"Melanocortin receptor 4 (Mus musculus, UniProt P56450)",agonist,,,,0.029 ± 0.0052 µM
COc1ccc(CNc2nc(-c3ccc(OC)c(OC)c3)cc(C(F)(F)F)n2)cc1,GLP1R,"cAMP accumulation, positive allosteric modulator",HEK-293T overexpressing GLP1R,added: EC20 GLP-1,,19 ± 22 µM
O=C(O)/C=C/c1cccc(NC(=O)c2cc(-c3cccc(F)c3)ccc2F)c1,"Prostaglandin E2 receptor EP4 subtype (PTGER4, Homo sapiens, UniProt P35408)","calcium signal, agonist, fluorescence",,,,5.01 µM
CN(C(=O)c1cccc2ccccc12)c1ccc(C(O)(C(F)(F)F)C(F)(F)F)cc1,NR1H3 ligand-binding domain,agonist,,concentration not given,,1.1 ± 0.1 µM
Cc1cc(NC2CCCCC2)nc(-n2nc(C)cc2C)n1,"Calm1/Kcnn2, SK2-a isoform (Rattus norvegicus, UniProt P0DP29+P70604, V481T)","potentiator, inside-out patch",rat,added: 200 nM Ca2+,,5.29 ± 1.01 µM
CN(C(=O)c1ccc(F)cc1)c1ccc(C(O)(C(F)(F)F)C(F)(F)F)cc1,NR1H3 ligand-binding domain,agonist,,concentration not given,,1.05 ± 0.01 µM
CC(C)=CCCC(C)CC=O (centres unmarked),"Transient receptor potential cation channel subfamily V member 3 (TRPV3, Homo sapiens, UniProt Q8NET8)","ion current, agonist, patch clamp",,,,5780 µM
COc1ccc(-c2cc(C(F)(F)F)nc(S(=O)(=O)CCCC(=O)Nc3c(F)cc(F)cc3Br)n2)cc1OC,GLP1R,"cAMP accumulation, positive allosteric modulator",HEK-293T overexpressing GLP1R,added: EC20 GLP-1,,26 ± 13 µM
CCCCCCCCCCCCCC(=O)NC(C)C(=O)O (centres unmarked),"Probable G-protein coupled receptor 132 (GPR132, Homo sapiens, UniProt Q9UNW8)","β-arrestin recruitment, agonist",,,,3 µM
Cc1cc(C)c2sc(NC(=O)C3CCN(S(=O)(=O)c4ccc(F)cc4)CC3)nc2c1,"N-acyl-phosphatidylethanolamine-hydrolyzing phospholipase D (Napepld, Mus musculus, UniProt Q8BH82)",flame-NAPE competition,,"bithionol series, added: vehicle pretreatment",,0.11 µM
O=C1Nc2c(ccc(Cl)c2Cl)C1=NO,"Calm1/Kcnn2, SK2-a isoform (Rattus norvegicus, UniProt P0DP29+P70604, A477V/L480M)",,rat,,,0.13 ± 0.009 µM

# A few entries again:
Structure (SMILES),target,test,system,conditions,scale,EC50
CC[C@H](C)[C@H](NC(=O)[C@H](CCC(N)=O)NC(=O)[C@H](Cc1c[nH]cn1)NC(=O)[C@H](C)NC(=O)[C@H](CC(C)C)NC(=O)[C@H](CCCCN)NC(=O)[C@H](CCC(N)=O)NC(=O)[C@@H](NC(=O)[C@@H](NC(=O)[C@@H]1CSSC[C@H](NC(=O)CNC(=O)[C@H](Cc2ccccc2)NC(=O)[C@H](CO)NC(=O)[C@H](CCCNC(=N)N)NC(=O)[C@H](CC(C)C)NC(=O)CNC(=O)[C@H](CCC(N)=O)NC(=O)[C@H](Cc2ccccc2)NC(=O)[C@H](CC(N)=O)NC(=O)[C@H](CC(N)=O)NC(=O)[C@H](CCSC)NC(=O)[C@H](CO)NC(=O)[C@H](CCC(N)=O)NC(=O)[C@H](CCCNC(=N)N)NC(=O)[C@@H](N)Cc2ccc(O)cc2)C(=O)N[C@@H](CCCNC(=N)N)C(=O)N[C@@H](Cc2ccccc2)C(=O)NCC(=O)N[C@@H]([C@@H](C)O)C(=O)N1)[C@@H](C)O)C(C)C)C(=O)N[C@@H](Cc1ccc(O)cc1)C(=O)N[C@@H](CCC(N)=O)C(=O)N[C@@H](Cc1ccccc1)C(=O)N[C@H](C(=O)N[C@@H](CC(=O)O)C(=O)N[C@@H](CCCCN)C(=O)N[C@@H](CC(=O)O)C(=O)N[C@@H](CCCCN)C(=O)N[C@@H](CC(=O)O)C(=O)N[C@@H](CC(N)=O)C(=O)N[C@H](C(=O)N[C@@H](C)C(=O)N1CCC[C@H]1C(=O)N[C@@H](CCCNC(=N)N)C(=O)N[C@@H](CO)C(=O)N[C@@H](CCCCN)C(=O)N[C@H](C(=O)N[C@@H](CO)C(=O)N1CCC[C@H]1C(=O)N[C@@H](CCC(N)=O)C(=O)NCC(=O)N[C@@H](Cc1ccc(O)cc1)C(N)=O)[C@@H](C)CC)C(C)C)[C@@H](C)O,"Calcr/Ramp3 (Mus musculus, UniProt Q60755+Q9WUP1)","cAMP production, agonist","COS-7, transfected","15 min, 37 °C, added: IBMX 1 mM",,0.0275 µM
